Measurements of several laboratories.
Each numbered part is a random draw from the data of one study; scales do not carry over between parts.

Block 1
Target: Fragile X messenger ribonucleoprotein 1, C-terminal low-complexity region (Fmr1, Mus musculus, UniProt P35922)
Method: RNA Bind-n-Seq
Molecule type: RNA
Medium: in vitro
Tested at: 200 nM
Notes: whole 134-nt RNA, ends assumed
Added: 150 mM LiCl
Relative to: input library
Direction: higher = stronger binding
Library: 7-deaza-guanosine replaces G
Strand | log2 enrichment
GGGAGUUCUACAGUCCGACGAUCUAACUUAAGAGGAGGAUCUGAUGGAUAUGGCAGUGGACGUGGAUUUGGGGAUGGCUAUAAUGGGUAUGGAGGAGGACCUGGAGGUGGCAAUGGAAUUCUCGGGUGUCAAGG | 0.658
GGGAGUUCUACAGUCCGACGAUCAGUCCUGUGCUACACAUCGUAUGUACCGAAUCGGUUUUUUGGUUUUUUGGUUUUUUGGAAAGUAUUAUGUUACGCCGUUCGGAUCUGCACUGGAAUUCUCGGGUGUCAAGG | -1.99
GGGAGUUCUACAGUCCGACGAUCCUCAAGUCCUGUGCUACACAUCGUAUGUACCGAAUCGGGAAAGGGAGGGAGGGAAAGUAUUAUGUUACGCCGUUCGGAUCUGCACUUCCAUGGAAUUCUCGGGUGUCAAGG | -0.67
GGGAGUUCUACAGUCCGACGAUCUCCUGUGCUACACAUCGUAUGUACCGAAUCGGGUUUUUUUGGGUUUUUUUGGGUUUGGGAAAGUAUUAUGUUACGCCGUUCGGAUCUGCAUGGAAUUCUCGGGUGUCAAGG | 0.885
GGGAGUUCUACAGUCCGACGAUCGCAGGAAGUAAAAACAAAUGGAAAUGCUUCGGAUAGUGGCAGGGGUGGGGGUUGCUAAGGAAAGUGUGGGAUGGGAGUGGGUAAAGAGUUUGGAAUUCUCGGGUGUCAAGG | 1.47
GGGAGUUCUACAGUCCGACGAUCAGGAAAAUGUUUAUAGGAGGCCUUAGCUGGGACACUACAAAGAAAGAUCUGAAGGACUACUUUUCCAAAUUUGGUGAAGUUGUAGACUGCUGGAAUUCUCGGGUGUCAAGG | -1.44
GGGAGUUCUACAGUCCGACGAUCCACAGACAACACGCACCCACACAGACACAGAGGGAAGGGGUUGGGAUGGGGACAGGGUGCACAGCAGCGCGGGGUAGGACCCCAGCCCCUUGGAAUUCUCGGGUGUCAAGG | 0.00299
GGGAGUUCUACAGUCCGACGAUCCCUGUGCUACACAUCGUAUGUACCGAAUCGGGAAAAAAAGGGAAAAAAAGGGUUUUUGGGAAAGUAUUAUGUUACGCCGUUCGGAUCUGCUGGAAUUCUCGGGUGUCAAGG | -1.98
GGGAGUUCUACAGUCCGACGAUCGUCCUGUGCUACACAUCGUAUGUACCGAAUCGGGGUUUUUGGGGAAAGGGGAAAGGGGAAAGUAUUAUGUUACGCCGUUCGGAUCUGCACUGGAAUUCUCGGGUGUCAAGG | 0.506
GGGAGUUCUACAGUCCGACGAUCCAAGUCCUGUGCUACACAUCGUAUGUACCGAAUCGGGAAAAAGGGUUUGGGAGGGAAAGUAUUAUGUUACGCCGUUCGGAUCUGCACUUCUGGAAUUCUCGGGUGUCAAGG | -1.13
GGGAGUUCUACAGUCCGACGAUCUGGGAGGUGGAUUUUGUUUAUUUUUCUAGCUCAUUUCCAGGGGUGGGAAUUUUUUUUUAAUAUGUGUCAUGAAUAAAGUUGUUUUUGAAAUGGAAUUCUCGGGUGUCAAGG | -0.0513

Block 2
Target: RNA binding protein fox-1 homolog 2, RRM domain, GST-SBP tag (RBFOX2, Homo sapiens, UniProt O43251-10, residues 100-194)
Method: RNA Bind-n-Seq
Molecule type: RNA
Medium: in vitro
Tested at: 365 nM
Notes: natural RNA segment, single round, ends assumed
Relative to: no-protein control
Direction: higher = stronger binding
Construct (chain): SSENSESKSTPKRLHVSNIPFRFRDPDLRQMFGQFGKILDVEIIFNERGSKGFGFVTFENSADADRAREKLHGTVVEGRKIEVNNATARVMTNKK
Strand | RBNS enrichment (R)
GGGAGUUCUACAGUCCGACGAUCCACCUGGCCUGUAGCAAAUAAUUUUUAAGCAUUCUCAAGAUGUAUGAUGUUGGGUUUAACAUCAUAUGUUCACAGUGUUUUAAAUAAGAAAUAAUCUGUCUUUAGUAUACUGGAAUUCUCGGGUGCCAA | 0.523
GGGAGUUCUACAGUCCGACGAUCUUUUAAAGAUAAAACUUUACAACCUGCACAUUUGUUAUGCAUACUAAAUGGUGUGUUAAAAUUAGGGUUUCUUUGCCUCUCUACACUACACUAAUCUGCCUAAAGGUGGUUGGAAUUCUCGGGUGCCAA | 0.863
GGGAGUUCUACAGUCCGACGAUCCAGGUGGAGCCACCUGCUGGGCUCCCCCAGAACUUUGCACACAUCUUGCUAUGUAUUAGCCGAUGUCUUUAGUGUUGAGCCUCUGGAUUCUGGGGUCUGGGCCAGUGGCCUGGAAUUCUCGGGUGCCAA | 0.342
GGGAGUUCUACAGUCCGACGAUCUCUGGGAUUUUCUUGGUCCUCAUUUUCUGACUCUCUCCCACAACCCACUCCAAAAGGUAGUACCUCAAGGCUUCUCGCACUCCCCUAUUUCCUCGGGAUAUGAGAAGCCUUGGAAUUCUCGGGUGCCAA | 0.27
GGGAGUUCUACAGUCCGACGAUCCCAGCCUUCUCAGUGGACUUGCCCCUCCUAAGCAGAGAAGGCCUAUGAGGUUGCUUGCUGCUGGGAAGCCUGGCAGAGCCAAUUACCACCCUCUGCUGCUUAGUGCUUGGUGGAAUUCUCGGGUGCCAA | 0.477
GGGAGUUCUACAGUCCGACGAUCCCAGGGGAGGAGGUGGGCAAGCUAACCGAAAGACUCCAUCUUUGUGUGCCCCACCCCUGGACAUAUACUGCUAAGGACAUCUCAAUACUAGACUCAGUCAGGAGUGGUGGUGGAAUUCUCGGGUGCCAA | 0.497
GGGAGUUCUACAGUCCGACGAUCCUUAGCAGACGGCAGUCAAUCCACAUUCAAUAAAAAGUACAUAAUGCCCAUUUUUAUAUGCACGUUUUUAAACUUCCAAGUUCUGAAAAUUGUUUACUGGUUAUCUCUAUUGGAAUUCUCGGGUGCCAA | 0.994
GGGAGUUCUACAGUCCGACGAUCCCCUCUGCCGCUGCUUCCAGGCUGGGCAGCACAAGGCCUUGCCUGGCCUGAUGAUGGUGGGUGGGUGGGAUGAGUACCCCCUCAAACCCUGCCCUCCUUAGACCUGAGGGUGGAAUUCUCGGGUGCCAA | 0.343
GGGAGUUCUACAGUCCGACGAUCGCAAAGAAUUCAUAGCAGUUAAUUCCCCUUUUUGACCCUUUUGAGAUGGAACUUUCAUAAAGUUUCUUGGCAGUAGUUUAUUUUGCUUCAAAUAAACUUAUUUGAAAAGUUGGAAUUCUCGGGUGCCAA | 0.663
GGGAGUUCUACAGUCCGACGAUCAGGUCUUCAGGUAUUCAGGAUAGAGAUAAUCUCCUGAAAAACCUGAAUUUCAGAGAUUCUUAGACUGGCUGCCAAAGGAUGAAGCUAGUGAAGGAGAAAAAGCUUAAAUUUGGAAUUCUCGGGUGCCAA | 1.15
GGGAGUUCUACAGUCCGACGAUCGGGAUGCCGUUUGAAAACAGGCACUCUUCCCCUGAGGAUGGGAAAGGAGCUCUUCAGUUGGAGAUCUAGGCAGUGGGUUAAGCCAGACCCCUAAAGUGACCCUUUCCUCUUGGAAUUCUCGGGUGCCAA | 0.543
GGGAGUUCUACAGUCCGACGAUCAUCUAUACAAUUAAACAAAUUUAAUGAACCCUAUGAAUUAUUCUUUGAUGUGUUUGUUUUUGUAAGAAAUAUGGAGGAACUGAAUUAUAAAGAAAAUAAAAUCCUUCUGUUGGAAUUCUCGGGUGCCAA | 0.83

Block 3
Target: Sal-like protein 4, full length isoform A (SALL4, Homo sapiens, UniProt Q9UJQ4, residues 1-1053)
UniProt Q9UJQ4, sequence (whole entry, looked up): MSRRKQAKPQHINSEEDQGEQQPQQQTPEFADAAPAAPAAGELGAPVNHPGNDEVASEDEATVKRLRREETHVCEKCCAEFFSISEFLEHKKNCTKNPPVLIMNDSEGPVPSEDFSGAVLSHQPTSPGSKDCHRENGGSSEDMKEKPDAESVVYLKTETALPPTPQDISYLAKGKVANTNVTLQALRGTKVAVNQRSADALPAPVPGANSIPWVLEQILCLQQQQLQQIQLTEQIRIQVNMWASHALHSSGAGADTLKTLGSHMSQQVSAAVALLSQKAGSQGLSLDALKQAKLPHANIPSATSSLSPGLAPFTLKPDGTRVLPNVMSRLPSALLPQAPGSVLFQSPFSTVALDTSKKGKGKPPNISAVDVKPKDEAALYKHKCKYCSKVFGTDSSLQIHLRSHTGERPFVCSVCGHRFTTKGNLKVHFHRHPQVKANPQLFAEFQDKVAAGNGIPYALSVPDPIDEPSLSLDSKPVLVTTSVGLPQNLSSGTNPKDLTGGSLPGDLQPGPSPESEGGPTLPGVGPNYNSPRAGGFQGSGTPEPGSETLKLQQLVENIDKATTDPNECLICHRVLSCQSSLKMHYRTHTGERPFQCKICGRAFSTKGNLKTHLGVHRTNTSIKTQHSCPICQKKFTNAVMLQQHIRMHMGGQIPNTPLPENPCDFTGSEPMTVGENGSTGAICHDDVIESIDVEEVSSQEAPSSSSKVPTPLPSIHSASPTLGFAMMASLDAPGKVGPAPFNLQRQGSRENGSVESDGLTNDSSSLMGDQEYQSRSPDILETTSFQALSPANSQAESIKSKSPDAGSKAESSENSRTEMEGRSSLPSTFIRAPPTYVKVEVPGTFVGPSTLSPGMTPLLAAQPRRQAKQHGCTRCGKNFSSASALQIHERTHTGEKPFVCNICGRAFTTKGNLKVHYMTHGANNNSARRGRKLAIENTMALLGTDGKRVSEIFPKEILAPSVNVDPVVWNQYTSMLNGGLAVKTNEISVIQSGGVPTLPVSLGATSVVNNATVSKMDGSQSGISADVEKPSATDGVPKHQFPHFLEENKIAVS
Method: universal PBM
Molecule type: double-stranded DNA, one strand shown
Medium: in vitro
Tested at: 600 nM
Notes: 8-mer, flanks averaged, mean of replicates
Direction: higher = stronger binding
Strand | E-score
GCTCTGCC | -0.27
CAGAAACC | -0.102
AGACCACT | -0.0244
CAACATCC | -0.182
TAGATAAA | 0.293
CGAATACG | 0.0113
GAGGCGGA | -0.185
AAATCGCG | -0.0451
AACGAATC | 0.184
ACGCAAAG | 0.00186
GCACTGGC | -0.227
AAAGGTAT | 0.149
GACGATCA | -0.0546
CGAAATGA | 0.155
GAGGGTGA | -0.268
GTCATTAA | 0.235
ACGAGCAA | -0.0825
GTTGTAAA | 0.154
CAATACCA | 0.206
TACATTCA | 0.267
AATTCTAC | 0.183
ACCACATG | 0.0649
GAATTGCC | -0.0181

Block 4
Target: Interferon regulatory factor 5, full length, phosphomimetic (IRF5, Homo sapiens, UniProt Q13568-2, residues 1-514, K96S/S451D/S453D/S456D/S462D)
Method: protein-binding microarray
Molecule type: double-stranded DNA, one strand shown
Medium: in vitro
Tested at: 250 nM
Notes: 60-bp whole probe
Added: salmon DNA 0.4 mg/ml
Relative to: random background probes
Direction: higher = stronger binding
Shared flanks, not repeated: GCCTAGCAC … GTCTTGATTCGCTTGACGCTGCTG
Strand | log fluorescence [z-score]
GACGGACAGGGTTTCGGGACGTGCTAG | 1.36
TTTGGTATCCTTCTCCTTTAGTGCTAG | 0.604
CCTTGTCCCCTCAGGTATGGGTGCTAG | -0.303
TCATGCTTGTATCTGGGACTGTGCTAG | 0.0227
GAAGAAATTTAATAGTCACTGTGCTAG | 0.502
GACGATCTCAATATCGAGACGTGCTAG | 0.714
GACGAACTGGGGACTGCAGACGTGCTA | -0.524
GGAGTTTTCTCATTCGTCATGTGCTAG | 0.766
CTAATTTTCATTTTCCAAATGTGCTAG | 3.09
TTAGGTTCCGGTTTGGGTTAGTGCTAG | 1.53
TTAGGTTTCCGTTCCGGTTAGTGCTAG | 2.54
TTAGAGCTGGGGTTTCGATTAGTGCTA | 4.76
TTAGGTTTCATACTGCTTTAGTGCTAG | 2
GACGGTTTCCTTTCCCCGACGTGCTAG | 1.44
GACGGTCTCCTACTGCTGATGTGCTAG | -0.0365
TTGTTTCCATTTTCTGAATGCGTGCTA | 3.01
CTCCCTTTCAGTTTTCCTCTGTGCTAG | 3.16
CCCAGTCTCATATTTATTAGGTGCTAG | 0.4
TTAGGACTGGGTTTCTGTTAGTGCTAG | 2.06
CCCTTAAAAGACGTGCCAATGTGCTAG | -0.155
GACAAACTGGGGTTTCGAGACGTGCTA | 1.41
GACGATATCCTTTTCCTGACGTGCTAG | 0.669
GACGGTTCCGACTATCGGGACGTGCTA | 1.57

Repeated from above (block 4):
Strand | log fluorescence [z-score]
CCTTGTCCCCTCAGGTATGGGTGCTAG | -0.303
TCATGCTTGTATCTGGGACTGTGCTAG | 0.0227
GAAGAAATTTAATAGTCACTGTGCTAG | 0.502
GACGATCTCAATATCGAGACGTGCTAG | 0.714
GACGAACTGGGGACTGCAGACGTGCTA | -0.524
GGAGTTTTCTCATTCGTCATGTGCTAG | 0.766
CTAATTTTCATTTTCCAAATGTGCTAG | 3.09
TTAGGTTCCGGTTTGGGTTAGTGCTAG | 1.53
TTAGGTTTCCGTTCCGGTTAGTGCTAG | 2.54
